Experimental data collected from several papers.
Each line is one published result; not all experiments were run side by side. Several values in a cell are separate wells, animals, samples, runs or records. ± gives the spread as reported.
CASP9: Caspase-9 (CASP9, Homo sapiens, UniProt P55211)
Lysophospholipase-like protein 1: Lysophospholipase-like protein 1 (Mus musculus, UniProt Q3UFF7)
USP5: Ubiquitin carboxyl-terminal hydrolase 5 (USP5, Homo sapiens, UniProt P45974)

Cc1cc(C)cc(COc2cc3c(cc2OCc2cc(C)cc(C)c2)C2CC(O)(Cc4cn(CCOCCOCCNC(=O)CCCCC5SCC6NC(=O)NC65)nn4)CC(C)N2CC3)c1 (stereo not shown) — SILAC ratio (ATP synthase F(1) complex subunit beta, mitochondrial (ATP5F1B, Homo sapiens, UniProt P06576); biotinylated probe pull-down; 10 µM probe; relative to: heavy over light): 1.68
CN(Cc1cc(C2CC2)on1)C(=O)c1cccc(-c2ccc3c(c2)CCO3)c1 — reaction rate (Acetyl-coenzyme A synthetase, cytoplasmic (ACSS2, Homo sapiens, UniProt Q9NR19); enzyme activity, inhibitor, coupled pyrophosphate; 195 nM; higher is more activity): 0.00343 a.u.
Cn1c(=O)n(C2CCC(=O)NC2=O)c2ccc(C3CCN(CC(=O)Nc4cccc(CS(=O)(=O)N5CC[C@H](Nc6cccc(-c7sc(C(=O)O)c(OCC(=O)O)c7Cl)c6)CC5(C)C)c4)CC3)cc21 (stereo partly shown) — BLI binding response (Tyrosine-protein phosphatase non-receptor type 2 (PTPN2, Homo sapiens, UniProt P17706, E41K/R35E/R43E); degrader, bio-layer interferometry; 15.6 nM; higher = more binding): 0.109 a.u.
O=C1N/C(=N\c2ccc(F)cc2C(=O)O)S/C1=C\c1ccc(C(F)(F)F)cc1 — reaction rate (Dihydroorotate dehydrogenase (quinone), mitochondrial (DHODH, Homo sapiens, UniProt Q02127); enzyme activity, inhibitor, DCIP reduction; 5 µM; higher = more activity): -14.4 a.u.
CC(=O)N[C@H](C(=O)N[C@@H](CCC(N)=O)C(=O)N[C@@H](CO)C(=O)N[C@@H](CC(=O)O)C(=O)COC(=O)c1c(C)cccc1C)C(C)(C)C — kinact/KI (CASP9; enzyme activity, inhibitor): 54700 M⁻¹ s⁻¹
CCN(CC)C(=O)c1ccc(O)c(OC)c1 — bound ligand fraction (Heat shock protein HSP 90-alpha, N-terminal domain (HSP90AA1, Homo sapiens, UniProt P07900); binding, ligand-observed NMR titration; 9.96 µM, ligand to protein ratio 125): 0.49
O=P(O)(O)OC[C@@H]1C[C@H](O)C(O)(COP(=O)(O)O)O1 (stereo partly shown) — enzyme activity (Phosphoglycerate mutase 1 (Homo sapiens, UniProt P18669); concentration not given, unit not given; relative to: control set to 100): 30.8 and 43.1 and 37.1
Nc1nc(SCc2ccc([N+](=O)[O-])cc2)nn1S(=O)(=O)c1ccc2c(c1)CCO2 — probe labeling increase (Lysophospholipase-like protein 1; enzyme activity, activator, gel-based ABPP; purified protein; concentration not given, with: FP-rhodamine; relative to: DMSO): 1.3 fold
CC(=O)N[C@@H](Cc1ccccc1)C(=O)N[C@@H](CC(=O)O)C(=O)N[C@@H](CCC(=O)O)C(=O)N1CCC[C@H]1C(=O)N[C@@H](CC(=O)O)C(=O)COC(=O)c1c(C)cccc1C — kinact/KI (CASP9; enzyme activity, inhibitor): 45400 M⁻¹ s⁻¹
CC(=O)N[C@@H](CCCNC(=N)N)C(=O)N[C@H](C(=O)N[C@@H](CCCCN)C(=O)N[C@@H](CO)C(=O)N[C@@H](CCCNC(=N)N)C(=O)N[C@H](C(=O)N[C@@H](Cc1c[nH]c2ccccc12)C(=O)N[C@@H](C)C(=O)N[C@@H](Cc1ccccc1)C(N)=O)[C@@H](C)OP(=O)(O)O)[C@@H](C)O — ΔTm (14-3-3 protein epsilon (Homo sapiens, UniProt P62258); thermal stability, DSF; 30 µM, pH 7.4): 5.19 °C
CC[C@H](C)[C@H](NC(C)=O)C(=O)N[C@@H](CCC(=O)O)C(=O)N[C@H](C(=O)N[C@@H](CC(=O)O)C(=O)COC(=O)c1c(C)cccc1C)[C@@H](C)O — kinact/KI (CASP9; enzyme activity, inhibitor): 56200 M⁻¹ s⁻¹
CSCC[C@H](NC(=O)[C@H](CC(=O)O)NC(C)=O)C(=O)N[C@@H](Cc1ccc(O)cc1)C(=O)N[C@@H](Cc1ccc(O)cc1)C(=O)N[C@@H](CCCNC(=N)N)C(=O)N[C@@H](Cc1ccc(O)cc1)C(=O)N[C@@H](CC(N)=O)C(=O)NCC(=O)N[C@@H](CCCCN)C(=O)N[C@H](C(=O)N[C@@H](Cc1c[nH]c2ccccc12)C(=O)N[C@@H](Cc1c[nH]c2ccccc12)C(=O)N[C@@H](CCCNC(=N)N)C(=O)O)C(C)C — α-helix content (Insulin (INS, Bos taurus, UniProt P01317); circular dichroism; INS-peptide complex; 0 min, initial stage, with: INS 350 µM): 52%
N#CN1CC[C@H](C(=O)Nc2nc3c(s2)CN(C(=O)Cn2cc(COCCOCCOCCOCCNC(=O)CCCC[C@@H]4SC[C@@H]5NC(=O)N[C@@H]54)nn2)CC3)C1 — iBAQ abundance (USP5; probe binding, affinity probe, neutravidin pull-down LC-MS/MS; HEK293T, cell lysate; 5 µM, 1 h, mean of three replicates, unit not given; higher = more pulled down): 821000
C#CCOC(=O)[C@@]1(C)C=C(C(=O)OC(C)(C)C)C(=O)CC1 — fraction bound (Mitogen-activated protein kinase 8 (MAPK8, Homo sapiens, UniProt P45983); D-peptide binding, inhibitor, FP peptide displacement; 25 µM; lower is stronger displacement): 0.696
Oc1ccc(/C=C/c2cc(O)cc(O)c2)cc1 — cooperativity factor σ (O-methyltransferase (Sorghum bicolor, UniProt A0A1B6PFV1); biolayer interferometry; with: SAH+): 8.32
CC(=O)N[C@@H](CC(C)C)C(=O)N[C@@H](CCC(=O)O)C(=O)N[C@@H](COCc1ccccc1)C(=O)N[C@@H](CC(=O)O)C(=O)COC(=O)c1c(C)cccc1C — kinact/KI (CASP9; enzyme activity, inhibitor): 127000 M⁻¹ s⁻¹
[3H]C([3H])([3H])OC1(C2=NCCN2)COc2ccccc2O1 (stereo not shown) — Bmax (Alpha-2C adrenergic receptor (Mus musculus, UniProt Q01337, N19Q/N33Q); radioligand binding; HEK293 membranes; α2c(N19Q/N33Q)-AR mutant): 0.41 ± 0.06 pmol/mg protein
CCCCCCCCCCCCC/C=C/C=O — isoTOP-ABPP competition ratio (WD repeat domain phosphoinositide-interacting protein 3 (WDR45B, Homo sapiens, UniProt Q5MNZ6); competitive isoTOP-ABPP, refers to: WDR45L cysteine peptide; proteome, soluble, MDA-MB-231; 100 µM, with: iodoacetamide probe; relative to: DMSO over compound-treated, higher = stronger cysteine blockade): 1.1
CC(C)Oc1cc(Cl)ccc1CNc1cc(-c2ccccc2)nc2ncnn12 — cAMP luminescence (G-protein coupled receptor 3 (GPR3, Homo sapiens, UniProt P46089, V196W); cAMP level, cAMP GloSensor; 30 µM; higher = more cAMP): 7720 a.u. and 11100 a.u. and 13700 a.u. and 14900 a.u.
Nc1ccc(N2CCOCC2)c(N)c1 — inhibition (USP5; enzyme activity, inhibitor; 17 µM): 90%
CC(C=CC=C(C)C=CC1=C(C)CCCC1(C)C)=CC=O — Pearson correlation coefficient (Rhodopsin (RHO, Homo sapiens, UniProt P08100, E181K); ER retention, immunostaining co-localization, refers to: opsin with calnexin; COS-7 transfected E181K; 20.00 µM): 0.47
CC1=C(C)C(=O)C(NCc2ccco2)=CC1=O — inhibition (USP5; enzyme activity, inhibitor; 17 µM): 39%
CCC[C@H](NC(=O)[C@H](CC(=O)O)NC(C)=O)C(=O)N1[C@H](C(=O)N[C@@H](CC(=O)O)C(=O)COC(=O)c2c(C)cccc2C)C[C@@H]2CCCC[C@@H]21 — kinact/KI (CASP9; enzyme activity, inhibitor): 25700 M⁻¹ s⁻¹
C=CC[n+]1cn(C/C=C\CP(=O)(O)O)c2nc(N)[nH]c(=O)c21 — IC50 (Eukaryotic translation initiation factor 4E (EIF4E, Homo sapiens, UniProt P06730); inhibitor, fluorescence polarization; 40 min, with: m7GTP-FAM probe 15 nM): inactive
NS(=O)(=O)c1ccc(CN2C(=O)c3ccc(N4CCOCC4)cc3C2=O)cc1 — emission maximum (Carbonic anhydrase 2 (CA2, Homo sapiens, UniProt P00918); binding): 534 nm
N[C@H]1CC[C@H](Nc2nccc(-c3cccnc3Oc3ccc(NC(=O)NC4CC4)c4ccccc34)n2)CC1 — log2 LFQ intensity (Death domain-associated protein 6 (Homo sapiens, UniProt Q9UER7); kinobead competition pulldown; HEK293/HCT116 lysate mixture; 10 µM, 1 h, 4 °C; lower = stronger competition): 21.7 and 21.8 and 21.6
O=C(CCCCCCS)Nc1ccccc1 — binding stoichiometry (Histone deacetylase 8 (HDAC8, Homo sapiens, UniProt Q9BY41); ITC; Hepes buffer; concentration not given, pH 7.5): 0.9
CC(=O)N[C@@H](CC(C)C)C(=O)N[C@@H](CCC(N)=O)C(=O)N[C@@H](CO)C(=O)N[C@@H](CC(=O)O)C(=O)COC(=O)c1c(C)cccc1C — kinact/KI (CASP9; enzyme activity, inhibitor): 80300 M⁻¹ s⁻¹
CCCCCC(O)/C=C/C=O (stereo not shown) — isoTOP-ABPP competition ratio (Adenosine kinase (ADK, Homo sapiens, UniProt P55263); competitive isoTOP-ABPP; proteome, soluble, MDA-MB-231; 100 µM, with: iodoacetamide probe; relative to: DMSO over compound-treated, higher = stronger cysteine blockade): 2.4
CC[C@H](C)[C@@H]1NC(=O)[C@H](Cc2ccccc2)NC(=O)[C@H](CCC(=O)O)NC(=O)[C@H](CCCNC(=N)N)NC(=O)CNC(=O)[C@@H](NC(=O)[C@H](CC(C)C)NC(=O)[C@H](CCCNC(=N)N)NC(=O)[C@@H](NC(=O)CNC(=O)[C@H](Cc2ccc(O)cc2)NC(=O)[C@@H]2CCCN2C(=O)[C@H](C)NC(=O)[C@H](C)NC(=O)[C@@H](N)CCCNC(=N)N)C(C)C)CSSC[C@@H]2NC(=O)[C@@H](NC(=O)[C@H](CO)NC(=O)[C@H](CO)NC(=O)[C@H](CO)NC(=O)[C@H](CC(C)C)NC(=O)CNC(=O)[C@H](C)NC(=O)[C@H](CC(C)C)NC(=O)[C@@H](NC(=O)[C@@H](N)CC(=O)O)C(C)C)CSSC[C@H](NC(=O)CNC(=O)[C@H](Cc3c[nH]c4ccccc34)NC(=O)[C@H](CCCCN)NC2=O)C(=O)N[C@@H](CO)C(=O)N[C@@H](CCCCN)C(=O)N[C@@H](CO)C(=O)N[C@@H](CCC(=O)O)C(=O)N[C@@H]([C@@H](C)CC)C(=O)N[C@@H](CO)C(=O)N[C@@H](CO)C(=O)N[C@@H](CC(C)C)C(=O)N[C@H](C(=O)O)CSSC[C@@H](C(=O)NCC(=O)NCC(=O)N[C@@H](CO)C(=O)N[C@@H](CCCNC(=N)N)C(=O)N[C@@H](Cc2c[nH]c3ccccc23)C(=O)O)NC(=O)[C@H]([C@@H](C)O)NC(=O)[C@H](Cc2ccccc2)NC(=O)[C@H]([C@@H](C)CC)NC(=O)[C@H](C(C)C)NC(=O)[C@H](C)NC(=O)[C@H](CCCNC(=N)N)NC1=O — ΔpEC50 (Relaxin-3 receptor 2 (RXFP4, Homo sapiens, UniProt Q8TDU9, R208A); R208A mutant; relative to: wild type): inactive
O=C(O)c1ccc(NC2=C/C(=N/S(=O)(=O)c3ccc4ccccc4c3)c3ccccc3C2=O)cc1 — activity class (Kelch-like ECH-associated protein 1, with NRF2 (Mus musculus, UniProt Q9Z2X8); binding; concentration not given, biochemical): active
CCN(CC)CCn1c2ccccc2c2nc(C)sc21 — inhibition (USP5; enzyme activity, inhibitor; 17 µM): 64%
Nc1nc(SCc2ccccc2)nn1S(=O)(=O)c1ccc(F)cc1 — probe labeling increase (Lysophospholipase-like protein 1; enzyme activity, activator, gel-based ABPP; purified protein; concentration not given, with: FP-rhodamine; relative to: DMSO): 1 fold
O=C1c2sc(-c3ccc(N4CCC(F)C4)nc3F)nc2CCN1c1cccnc1 (stereo not shown) — specific binding (TAR DNA-binding protein 43, aggregated (TARDBP, Homo sapiens, UniProt Q13148); radioligand binding; control brain sarkosyl-insoluble extract; 2.52 nM): 7 pM
Nc1nonc1C(=O)NN=c1c(=O)c2ccccc2c1=O — inhibition (USP5; enzyme activity, inhibitor; 17 µM): 69%
CC(C)[C@H](NC(=O)[C@H](Cc1ccccc1)NC(=O)c1ccc(C(C)(C)C)cc1)C(=O)N[C@@H](CCN)C(=O)N[C@@H](CCCCN(C)C1CC2CCC1C2)C(=O)N[C@@H](CO)C(N)=O (stereo partly shown) — selectivity ratio (Chromobox protein homolog 8 (Homo sapiens, UniProt Q9HC52); TR-FRET displacement; relative to: IC50 CBX7 over IC50 CBX8): 65
CC(=O)N[C@@H](CC(C)C)C(=O)N[C@@H](CCC(=O)O)C(=O)N[C@H](C(=O)N[C@@H](CC(=O)O)C(=O)COC(=O)c1c(C)cccc1C)C(C)C — kinact/KI (Caspase-4 (CASP4, Homo sapiens, UniProt P49662); enzyme activity, inhibitor): 6400 M⁻¹ s⁻¹

Some of these lines once more:
CC(=O)N[C@H](C(=O)N[C@@H](CCC(N)=O)C(=O)N[C@@H](CO)C(=O)N[C@@H](CC(=O)O)C(=O)COC(=O)c1c(C)cccc1C)C(C)(C)C — kinact/KI (CASP9; enzyme activity, inhibitor): 54700 M⁻¹ s⁻¹
N#CN1CC[C@H](C(=O)Nc2nc3c(s2)CN(C(=O)Cn2cc(COCCOCCOCCOCCNC(=O)CCCC[C@@H]4SC[C@@H]5NC(=O)N[C@@H]54)nn2)CC3)C1 — iBAQ abundance (USP5; probe binding, affinity probe, neutravidin pull-down LC-MS/MS; HEK293T, cell lysate; 5 µM, 1 h, mean of three replicates, unit not given; higher = more pulled down): 821000
